Assay results of several laboratories.
Lines come from different studies, so protocols differ. ± gives the spread as reported.
Cas13d full length assumed: Cas13d full length assumed (Eubacterium siraeum, UniProt B0MS50)
CSTF2: CSTF2 1-107 (Homo sapiens, UniProt P33240)
Chain of UniProt P33240 (whole entry, unmodified, looked up): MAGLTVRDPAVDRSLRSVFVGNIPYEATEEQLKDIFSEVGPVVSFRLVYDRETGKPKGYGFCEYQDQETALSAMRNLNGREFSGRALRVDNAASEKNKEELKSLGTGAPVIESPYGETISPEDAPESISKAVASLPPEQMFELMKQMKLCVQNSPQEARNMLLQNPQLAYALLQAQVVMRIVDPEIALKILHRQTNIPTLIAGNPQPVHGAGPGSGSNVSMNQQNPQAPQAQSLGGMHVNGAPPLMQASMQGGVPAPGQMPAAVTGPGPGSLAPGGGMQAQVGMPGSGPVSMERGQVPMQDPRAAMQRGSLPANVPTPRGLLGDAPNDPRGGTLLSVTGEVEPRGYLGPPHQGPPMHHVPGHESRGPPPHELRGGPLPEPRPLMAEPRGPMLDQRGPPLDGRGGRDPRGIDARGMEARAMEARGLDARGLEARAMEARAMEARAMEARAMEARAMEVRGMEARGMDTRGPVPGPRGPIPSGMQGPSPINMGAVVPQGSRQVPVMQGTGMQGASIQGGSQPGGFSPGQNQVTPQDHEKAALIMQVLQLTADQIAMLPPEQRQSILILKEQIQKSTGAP
drrR1 full length assumed: drrR1 full length assumed (Streptomyces coeruleorubidus, UniProt P0DXY9)
Chain of UniProt P0DXY9 (whole entry, looked up): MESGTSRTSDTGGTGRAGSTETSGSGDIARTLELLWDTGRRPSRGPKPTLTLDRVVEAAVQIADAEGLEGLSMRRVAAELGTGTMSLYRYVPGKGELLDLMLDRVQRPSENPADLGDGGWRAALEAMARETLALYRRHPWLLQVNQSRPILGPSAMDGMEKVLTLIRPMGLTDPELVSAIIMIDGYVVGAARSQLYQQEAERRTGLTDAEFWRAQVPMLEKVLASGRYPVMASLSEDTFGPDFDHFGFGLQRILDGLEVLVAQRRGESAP
AfsR 1-980: AfsR 1-980 (Streptomyces avermitilis)
T1: AfsR 1-980 (Streptomyces avermitilis); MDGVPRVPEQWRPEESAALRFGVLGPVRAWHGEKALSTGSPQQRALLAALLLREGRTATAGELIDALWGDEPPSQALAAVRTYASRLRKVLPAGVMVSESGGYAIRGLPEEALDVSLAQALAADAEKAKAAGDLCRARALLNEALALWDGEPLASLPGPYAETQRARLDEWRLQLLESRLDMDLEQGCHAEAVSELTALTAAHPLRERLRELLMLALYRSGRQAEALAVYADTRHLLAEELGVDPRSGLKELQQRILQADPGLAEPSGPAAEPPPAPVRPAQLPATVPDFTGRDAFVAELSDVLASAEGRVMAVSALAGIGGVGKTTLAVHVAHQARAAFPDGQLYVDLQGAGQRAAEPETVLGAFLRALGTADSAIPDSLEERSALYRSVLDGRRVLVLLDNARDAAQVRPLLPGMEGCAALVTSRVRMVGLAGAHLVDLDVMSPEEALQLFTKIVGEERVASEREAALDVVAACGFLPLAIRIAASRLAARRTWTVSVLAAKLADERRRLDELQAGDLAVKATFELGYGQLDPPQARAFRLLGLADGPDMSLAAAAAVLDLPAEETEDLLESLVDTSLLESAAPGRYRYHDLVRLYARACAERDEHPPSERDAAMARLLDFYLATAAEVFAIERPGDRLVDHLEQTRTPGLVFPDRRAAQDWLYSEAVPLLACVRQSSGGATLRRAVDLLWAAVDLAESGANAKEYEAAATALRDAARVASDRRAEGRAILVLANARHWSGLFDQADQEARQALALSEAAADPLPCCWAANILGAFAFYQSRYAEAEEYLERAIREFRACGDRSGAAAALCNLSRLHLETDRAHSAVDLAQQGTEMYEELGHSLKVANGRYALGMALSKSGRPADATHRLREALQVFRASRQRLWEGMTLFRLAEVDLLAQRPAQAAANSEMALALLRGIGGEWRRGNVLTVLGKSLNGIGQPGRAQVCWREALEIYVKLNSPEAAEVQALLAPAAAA
Chain of UniProt B0V3F8 (whole entry, looked up): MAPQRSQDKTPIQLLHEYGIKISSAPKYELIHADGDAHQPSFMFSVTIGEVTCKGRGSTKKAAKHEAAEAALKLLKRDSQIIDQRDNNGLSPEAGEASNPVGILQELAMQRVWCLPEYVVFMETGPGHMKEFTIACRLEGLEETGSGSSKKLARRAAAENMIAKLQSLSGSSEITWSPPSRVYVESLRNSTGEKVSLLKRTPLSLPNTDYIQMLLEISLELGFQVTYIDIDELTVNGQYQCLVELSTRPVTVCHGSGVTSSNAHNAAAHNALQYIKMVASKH
Chain of UniProt Q9NZQ7 (whole entry, looked up): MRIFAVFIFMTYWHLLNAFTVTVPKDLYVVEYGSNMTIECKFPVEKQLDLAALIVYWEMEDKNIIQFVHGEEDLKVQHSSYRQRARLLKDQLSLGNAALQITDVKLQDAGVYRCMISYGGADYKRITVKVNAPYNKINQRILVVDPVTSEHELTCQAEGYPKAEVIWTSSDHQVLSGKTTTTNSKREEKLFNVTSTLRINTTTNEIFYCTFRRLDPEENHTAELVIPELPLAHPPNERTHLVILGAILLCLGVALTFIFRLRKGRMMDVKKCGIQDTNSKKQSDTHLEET
Chain of UniProt P52003 (whole entry, looked up): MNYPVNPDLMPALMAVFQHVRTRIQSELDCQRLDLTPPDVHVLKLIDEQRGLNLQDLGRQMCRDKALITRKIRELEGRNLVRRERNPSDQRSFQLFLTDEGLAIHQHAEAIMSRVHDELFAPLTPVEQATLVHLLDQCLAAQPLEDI

Substance | target or system | assay | system | setting | scale | measurement | result
GGGCGGGGGAGACAUCCUUGUCUCGUGCCCGACCCCGCCC (structured RNA) | HNRNPA1 UP1 1-196 (Homo sapiens) | ITC | folded RNA | – | – | binding | no binding
RNA 1 CACCCGUGCAAAAAUGCAGGGGUCUAAAACUGAGCGGAUAACCUCUCUAUGG / RNA 2 CGUACCAUAGAGAGGUUAUCCGCUCACCGA (crRNA/target DNA; crRNA paired with target) | Cas13d full length assumed | cryo-EM | – | intermediate state | – | binding | binds
AUUUUAUGUUUCAGGU (ssRNA (simian virus 40); phosphorothioate at nucleotide 13) | CSTF2 | NMR PRE | RNA | – | – | binding | binds
Polymyxin B | – | – | mouse | intraperitoneal, 30 mg/kg single dose, day 6 | – | survival | 0%
GCCGCCCCTCCCGTGTGCTCGCGCCCTGCCTCCGGCACCATTTCTTCGAGGACCTAAGCTGGCTCC (dsDNA) | drrR1 full length assumed | competition | double-stranded DNA, one strand shown | excess unlabelled DNA | – | binding | no binding
nonaarginine | PorA peptide pore | peptide binding, planar bilayer single-channel recording | – | 0.5 µM, pH 7.4, +15 mV, trans side, 150 mM KCl | – | koff | 100 ± 10 s⁻¹
AUUUUAUGUUUCAGGU (ssRNA) | CSTF2 1-107 K57E (Homo sapiens, UniProt P33240) | ITC | RNA | 27 °C | – | binding | no binding
TTTATAAAAAACCAATATATGTCTTGACACATGTAAAAAACGTTGTATAATG (dsDNA) | niaR 1-174 K97Q (Streptococcus mutans, UniProt Q8DVX8) | EMSA | double-stranded DNA, one strand shown | – | – | binding | no binding
AUUUUAUGUUUCAGGU (ssRNA (simian virus 40); phosphorothioate at nucleotide 9) | CSTF2 | NMR PRE | RNA | – | – | binding | binds
ATTCGGCGTAAGGTGTGGCGCGTGGGTTTGCCTGAGAGGGCTCTCGGGTACACCATGGAAGTCACGGATCGTTCGCGACCGTGCTAACCCGGTCCGACTCCTCCCCCCCCGAGTCGGCCGTGGGGACGACCCCCGCTCTCCCCCCCGGCGGGGGTCGTCGCATGTCCGGATGGGTTTTCCTCCTTCTTTCAACGGTTTTTGAGCCTCGTCGCGGCCTCCCGGGCCGCTCTTTTTTATTCCCGTGAT (dsDNA) | T1, AfsR 1-980 (Streptomyces avermitilis) | EMSA | double-stranded DNA, one strand shown | – | – | binding | no binding
TTACCGACAGGTTTCCAAAAGAAACCCGGGATGAA (dsDNA) | nalD full length assumed (Pseudomonas aeruginosa, UniProt Q9HY46) | EMSA | double-stranded DNA, one strand shown | – | – | binding | binds
ATCCAGAGTGACGCAGCAATTACCGATGGCTTGTTTGTAATGTAGGGTTCCGTCCGATTGGACACGGTGGCTTAGT (ssDNA) | CD274 19-238 (Homo sapiens, UniProt Q9NZQ7) | ELONA | single-stranded DNA | off-target, specificity test | – | binding | no binding
aspterric acid | – | root length | Arabidopsis thaliana Col-0 seeds | 6.25 µg/mL, seed germination | relative to: water control | inhibition | 89.3%
GAGCTTCTCCCTGGCTTGGGACGGGCTGACGTGAACCACGGGACCCGAGAAGGGCTGAGGAAGGGCTGGAGAGCTGCGGAAGAGCTGCGGAGGAGCTGCGGAAGAGCTGCGGAAGAGCTGGAGGTCAAAGATACGTACTAGACGGTTTTGTCTTCAAGTCCCTCTTGCGGTCAAGGGTCATCCCTTACAAGGGAGTTGGGGGTGAGATATGTGTTTTTGAGTGGTTTGTGAGAGGGCG (dsDNA) | T1, AfsR 1-980 (Streptomyces avermitilis) | EMSA | double-stranded DNA, one strand shown | – | – | binding | binds
ATTAGTTTGTATGCAAACCATT (dsDNA) | MarR-family transcriptional regulator 1-147 R93A (Clostridioides difficile, UniProt A0A9R0BIW1) | EMSA | double-stranded DNA, one strand shown | – | – | binding | no binding
RNA 1 GCAUGGCUUAGGUCAACAUAUCUAUGAAACUUAUGGGGAUACUUGGUCAGGAGUGGAAGCAUAAUAAGAAUUCUGCAACAACUGC / RNA 2 GCAGUUGUUGCAGAAUUCUUAUUAUGCUUCCACUCCUGACCAAGUAUCCCCAUAAGUUUCAUAGAUAUGUUGACCUAAGCCAUGC (dsRNA (HIV-1); blunt) | prkra full length assumed (Danio rerio, UniProt B0V3F8) | EMSA | double-stranded RNA | – | – | binding | binds
CACCCGUGCAAAAAUGCAGGGGUCUAAAACUGAGCGGAUAACCUCUCUAUGG (ssRNA; crRNA hairpin, direct repeat-spacer) | Cas13d full length assumed | cryo-EM | folded RNA | – | – | binding | binds
heparin sodium | – | – | healthy Chinese adult volunteers | continuous intravenous infusion, dose not given, 5 days, excluding prolonged aPTT | – | drug-related AE incidence rate | 100%
AAATGTGGTTGATCCAGTCAACTATTTTG (dsDNA) | mexR 1-142 (Pseudomonas aeruginosa, UniProt P52003) | EMSA | double-stranded DNA, one strand shown | – | – | binding | binds
UUAUGUUU (ssRNA) | CSTF2 | NMR titration | RNA | 27 °C | – | binding | binds
GCCGCCCCTCCCGTGTGCTCGCGCCCTGCCTCCGGCACCAAACTGAGTACAGCGTACCCGATTACGCGTACGCCGTACCCAGTTTTTCTTCGAGGACCTAAGCTGGCTCC (dsDNA) | drrR1 full length assumed | competition | double-stranded DNA, one strand shown | excess unlabelled DNA | – | binding | binds
AGTTGGCCGAAAGTGCTGTGCTCGCTGGAGAGTGCCGCGGCCTGTGCAGTCAAGGTGCTGATCATCAAGGACAGTCCAAGGGTGCTGAGGAGAGCATGTGTTTTCATCTGATCTGCCTGCTTTTATTGTTATTGGTAAGACTATTTGATCGGATTAAAGCCGATGCATGGATTTATAGCCTATAAAATGCCACTTGAAAAATAAATTGTAATACTATTTAGTAGTGCCAGCTTCACTGAAACCGGTCGATCCGCTGGATGCCTGCGAAACAGGTCGACTGGGCACGCAGGTTGGACAA (dsDNA) | LysR family transcriptional regulator 1-307 (Pseudomonas savastanoi pv. phaseolicola, UniProt Q48CZ9) | EMSA | double-stranded DNA, one strand shown | – | – | binding | binds
GTCTTTAATAATTAAACTAGTGTCTTGACAGATGTAAACAACAGGTATAAAC (dsDNA) | niaR 1-174 (Streptococcus mutans, UniProt Q8DVX8) | EMSA | double-stranded DNA, one strand shown | – | – | binding | binds
insulin human | – | measured: UCP2 mRNA | uninfected mouse, brain | i.p., dose not given | relative to: PBS | fold change | 1.11
RNA 1 CACCCGUGCAAAAAUGCAGGGGUCUAAAACUGAGCGGAUAACCUCUCUAUGG / RNA 2 GGGUUCGUACCAUAGAGAGGUUAUCCGAUCACCGAGAUCG (crRNA/target DNA; mismatch at position 4) | Cas13d full length assumed R295A/H300A/R849A/H854A (Eubacterium siraeum, UniProt B0MS50) | EMSA | – | together with: EDTA 20 mM | – | binding | binds
GGGAGUCGACCGACCAGAAUGAUUGUUGUGUGUAUUGGGUGGCGGUAUGUGCGUCUACAUCUAGACUCAU (XNA; 2'-fluoro pyrimidines) | ALB 25-609 (Homo sapiens, UniProt P02768) | pull-down | modified nucleic acid | – | – | binding | binds

For quick reference, copied from above:
Substance | target or system | assay | system | setting | scale | measurement | result
CACCCGUGCAAAAAUGCAGGGGUCUAAAACUGAGCGGAUAACCUCUCUAUGG (ssRNA; crRNA hairpin, direct repeat-spacer) | Cas13d full length assumed | cryo-EM | folded RNA | – | – | binding | binds
